Experimental data gathered from unrelated publications.
Each numbered part is a random draw from the data of one study; scales do not carry over between parts.

Series 1
Target: Fragile X messenger ribonucleoprotein 1, C-terminal low-complexity region (Fmr1, Mus musculus, UniProt P35922)
Technique: RNA Bind-n-Seq
Form: RNA
Matrix: in vitro
Concentration: 200 nM
Setting: whole 134-nt RNA, ends assumed
With: 150 mM KCl
Reference: input library
Direction: higher = stronger binding
Endpoint: log2 enrichment
Constant ends, left off below: GGGAGUUCUACAGUCCGACGAUC … UGGAAUUCUCGGGUGUCAAGG
GCAGGAAGUAAAAACAAAUGGAAUUGCUUCGGAUAGUGGCAGGGGUGGGGGUUGCUAAGGAAAGGGUGGGAUGGGAGUGGGUAAAGAGUU: -0.0543
CUGUGCUACACAUCGUAUGUACCGAAUCGGGGAAAAAAAGGGGUUUGGGGAAAAAAAGGGGAAAGUAUUAUGUUACGCCGUUCGGAUCUG: -0.498
UCUGGACAUGCAGGUGGACCAGUCAGUGCCAGAGUAAGUUGUUGUUUUCUUAAAAGAAAAAAAAAAAUGUAAAAUCAUCUAACCCUAACC: 0.255
UGUGCUACACAUCGUAUGUACCGAAUCGGGGAAAAAAAGGGGAAAAAAAGGGGUUUUUGGGGAAAGUAUUAUGUUACGCCGUUCGGAUCU: 0.138
ACCAUUCAGGUGGGCAUCUUUGGGAAGUGGGGCAAGGGGGGGAUAGGGAGGGGGGUAACACUUUGGGAACAGGUGGUCCCAGGUCGUUUC: 0.715
UGGGAGGUGGAUUUUGUUUAUUUUUUUAGCUCAUUUCCAGGGGUGGGAAUUUUUUUUUAAUAUGUGUCGUGAAUAAAGUUGUUUUUGAAA: 0.351
UGGGAGGUGGAUUUUGUUUAUUUUUUUAGCUCAUUUCCAGGGGUGGGAAUUUUUUUUUAUUAUGUGUCAUGAAUAAAGUUGUUUUUGAAA: 0.157

Series 2
Target: Histone acetyltransferase KAT6A, both winged helices, GST fusion (KAT6A, Homo sapiens, UniProt Q92794, residues 1-181)
Technique: protein binding microarray
Form: double-stranded DNA, one strand shown
Matrix: in vitro
Concentration: not given
Setting: 8-mer, flanks averaged, mean of 2 arrays, mostly near background
Reference: not given
Direction: higher = stronger binding
Endpoint: E-score
Construct (chain): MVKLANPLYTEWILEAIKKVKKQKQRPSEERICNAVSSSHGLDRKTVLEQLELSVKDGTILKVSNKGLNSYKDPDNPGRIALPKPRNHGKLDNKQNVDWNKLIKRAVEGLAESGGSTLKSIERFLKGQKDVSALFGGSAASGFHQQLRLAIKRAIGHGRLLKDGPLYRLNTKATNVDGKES
AGGTGTCC: -0.0222
CAACCTCA: -0.199
AATATGGA: -0.0742
GAGTGGAC: -0.0919
CGAGCCGC: 0.322
CCTGGTTA: -0.211
AGAAAACT: -0.292
AGCTCTTA: 0.0388
TGAGAGAA: -0.193
ACCATTTA: -0.0848

Series 3
Target: RING finger protein unkempt homolog, zinc fingers 1-6, GST-SBP tag (UNK, Homo sapiens, UniProt Q9C0B0, residues 30-357)
Chain of UniProt Q9C0B0 (30-357, looked up): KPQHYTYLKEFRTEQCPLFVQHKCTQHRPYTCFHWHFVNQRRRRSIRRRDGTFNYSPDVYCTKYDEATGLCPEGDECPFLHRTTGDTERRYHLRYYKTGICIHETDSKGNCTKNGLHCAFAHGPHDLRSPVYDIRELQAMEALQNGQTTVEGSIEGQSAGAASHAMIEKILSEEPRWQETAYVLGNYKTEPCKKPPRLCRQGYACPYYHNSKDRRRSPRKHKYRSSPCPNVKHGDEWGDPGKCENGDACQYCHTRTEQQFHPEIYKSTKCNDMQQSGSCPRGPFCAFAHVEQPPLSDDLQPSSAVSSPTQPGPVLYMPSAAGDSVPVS
Technique: RNA Bind-n-Seq
Form: RNA
Matrix: in vitro
Concentration: not given
Setting: RNA with constant flanks, human and mouse sites, ends assumed
Reference: input RNA pool
Direction: higher = stronger binding
Endpoint: bound/input enrichment
Constant ends, left off below: GGGAGUUCUACAGUCCGACGAUC … CAACAGAGGAUUGAGCAUCA
GAUGAAAUGGGCCUAGGAAAGACUCUUCAAACAAUUUCUCUUCUUGGGUACAUGAAACAUUAUAGAAACAUUCCUGGGCCUCAUAUGGUUUUGGUUCCUAAGUCUACAUUACACAACUGG: 0.341 ratio
GAUAUUCUUCUUCUCAUUGUCCGUCUGGCUGUGUUAAUGGCUGUGACCCUGACAGUACCAGUAGUUAUUUUCCCAAUCCGGAGUUCUGUAACUCACUUGUUGUGUGCAUCAAAAGAUUUC: 0.6 ratio
GCAGAUGCAGUAGGCGUAACUGUUGUGCUAAUUACUUGUACCUAUCGAGGACAAGAAUUUAUUAGAGUUGGCUAUUAUGUAAAUAAUGAAUAUACUGAGACAGAAUUAAGGGAAAAUCCA: 1.82 ratio
UCUUUCCAAAGCAAUGUCUAAAAACUCUUUUUUUUAAAGUAACAGUUUGGUAUGUUUAUUGUAGAUAAAUUAUUUUUGAGGCCUUCAUUUUAGCUAAGUUUAGAAUUUAUAUUAGGCAAC: 12.1 ratio
AAAUACUUAGCACAGUUACUAAACAGUGUACGAUUACCAUUGUUGAGUGUUAAGUUUCUCACUAGACUAUAUGAAGCAAAUCAUCUUAUUCGUGAUGAUCGCACUUGUAAACAUCUUUUG: 0.302 ratio
UUCCUGCUCGCAUGCUGGACUUUUGGCACAUCUGUCCCCAGUGGCCUCUUCGUGCCUUCCCUGCUGUGUGGAGCAGCUUUUGGACGUUUAGUUGCCAAUGUCCUGAAAAGCUACAUUGGA: 0.113 ratio
GAUUCUCAGGGUAAAAAGAAAUGGAAAAAAACAUGCUGUCUCCCGUCUUUUAUAAUCUUUCUUUUUAUUGUUGGCUGCAUUAUUGCUGGAAUUACUCUUUUGGCUAUAUUCCGAGUUGAC: 0.331 ratio

Other studies, line by line
PhoQ, residues 284 288 289 292 302 303 GLASVI
fold induction (PhoP, residues 12 14 15 18 19 NMSFL (Escherichia coli, UniProt P23836); Sort-seq, measured: YFP reporter; E. coli; PhoQ-PhoP variant library, with: 10 µM Mg2+; reference: high Mg2+ state, higher = stronger signaling): 13.3

A few entries again (series 1):
ACCAUUCAGGUGGGCAUCUUUGGGAAGUGGGGCAAGGGGGGGAUAGGGAGGGGGGUAACACUUUGGGAACAGGUGGUCCCAGGUCGUUUC: 0.715
UGUGCUACACAUCGUAUGUACCGAAUCGGGGAAAAAAAGGGGAAAAAAAGGGGUUUUUGGGGAAAGUAUUAUGUUACGCCGUUCGGAUCU: 0.138
UGGGAGGUGGAUUUUGUUUAUUUUUUUAGCUCAUUUCCAGGGGUGGGAAUUUUUUUUUAUUAUGUGUCAUGAAUAAAGUUGUUUUUGAAA: 0.157
